Published values gathered from unrelated publications.
Lines come from different studies, so protocols differ.

CC[C@H](C)[C@H](NC(=O)[C@H](CC(C)C)NC(=O)[C@@H]1CCCN1C(=O)[C@H](CCC(N)=O)NC(=O)[C@H](CCCCN)NC(=O)[C@H](Cc1c[nH]cn1)NC(=O)[C@H](CS)NC(=O)[C@H](CCCNC(=N)N)NC(=O)[C@H](CCCCN)NC(=O)[C@H](CO)NC(=O)[C@H](CC(C)C)NC(=O)[C@H](CO)NC(=O)[C@H](Cc1ccccc1)NC(=O)[C@H](CC(C)C)NC(=O)[C@H](CCCCN)NC(=O)[C@H](Cc1c[nH]cn1)NC(=O)[C@@H](NC(=O)[C@@H](NC(=O)[C@H](CCCCN)NC(=O)[C@H](CCC(N)=O)NC(=O)[C@H](C)NC(=O)[C@H](CCCCN)NC(=O)[C@H](CC(C)C)NC(=O)[C@H](Cc1ccccc1)NC(=O)[C@H](CC(C)C)NC(=O)[C@H](CCC(N)=O)NC(=O)[C@@H](N)CCCCN)[C@@H](C)CC)C(C)C)C(=O)N[C@@H](CO)C(=O)N[C@@H](CC(C)C)C(=O)N1CCC[C@H]1C(=O)N[C@@H](CCCNC(=N)N)C(=O)N[C@@H](CCC(N)=O)C(=O)N[C@@H](CCCNC(=N)N)C(=O)O has a CC50 of 28.5 µM (THP-1, PMA-differentiated; cell viability, MTT).
Ic1ccccc1-c1nn2c(Cn3cnc4ccccc43)nnc2s1 gave a CC50 of 55.9 µM (HEp-2; cytotoxicity).
CC[C@H](C)[C@H](NC(=O)[C@H](CCSC)NC(=O)[C@H](Cc1c[nH]cn1)NC(=O)[C@@H](NC(=O)[C@H](CC(C)C)NC(=O)[C@H](CO)NC(=O)[C@H](CO)NC(=O)[C@H](CCCCN)NC(=O)[C@H](Cc1ccc(O)cc1)NC(=O)[C@H](CCCCN)NC(=O)[C@H](CC(N)=O)NC(=O)[C@H](CO)NC(=O)[C@H](CCCCN)NC(=O)[C@H](CC(C)C)NC(=O)[C@@H](NC(=O)[C@H](CC(C)C)NC(=O)[C@H](CC(C)C)NC(=O)[C@H](CCSC)NC(=O)[C@H](CCCNC(=N)N)NC(=O)[C@H](CCCCN)NC(=O)[C@H](CCCNC(=N)N)NC(=O)[C@@H](N)Cc1c[nH]c2ccccc12)[C@@H](C)O)C(C)C)C(=O)N[C@@H](CC(C)C)C(=O)NCC(=O)N[C@@H](CC(C)C)C(=O)N[C@@H](CO)C(=O)N[C@@H](CC(C)C)C(=O)N[C@@H](CCC(N)=O)C(=O)N[C@H](C(=O)N[C@@H](CS)C(=O)N[C@@H](CC(C)C)C(=O)N[C@H](C(=O)N[C@@H](CCCCN)C(=O)O)[C@@H](C)O)[C@@H](C)CC gave a CC50 of 265 µM (THP-1, PMA-differentiated; cell viability, MTT).
CC(C)C[C@H](NC(=O)OCc1ccccc1)C(=O)N[C@H](C=O)C[C@@H]1CCCNC1=O has a CC50 of > 100 µM (Calu-3; cytotoxicity).
With CC[C@H](C)[C@H](NC(=O)[C@H](CCCCN)NC(=O)[C@H](CCCNC(=N)N)NC(=O)[C@H](CCC(N)=O)NC(=O)[C@H](CCCNC(=N)N)NC(=O)CNC(=O)[C@H](Cc1ccccc1)NC(=O)[C@H](CCCNC(=N)N)NC(=O)[C@H](CCCNC(=N)N)NC(=O)[C@H](Cc1ccccc1)NC(=O)[C@H](CC(C)C)NC(=O)[C@@H]1CCCN1C(=O)[C@@H](NC(=O)[C@H](CC(N)=O)NC(=O)[C@@H](NC(=O)[C@@H](NC(=O)[C@H](CO)NC(=O)[C@H](CC(N)=O)NC(=O)[C@H](CCCNC(=N)N)NC(=O)[C@@H]1CCCN1C(=O)[C@@H](NC(=O)[C@@H]1CCCN1C(=O)[C@@H](N)Cc1ccccc1)[C@@H](C)CC)[C@@H](C)O)C(C)C)[C@@H](C)CC)C(=O)NCC(=O)NCC(=O)N[C@@H](CCCNC(=N)N)C(=O)NCC(=O)N[C@@H](CCCNC(=N)N)C(=O)N[C@H](C(=O)N[C@H](C(=O)N[C@@H](CO)C(=O)N1CCC[C@H]1C(=O)N[C@@H](Cc1ccc(O)cc1)C(=O)N[C@@H](CCCNC(=N)N)C(=O)N[C@H](C(=O)N1CCC[C@H]1C(=O)N[C@H](C(=O)N[C@@H](CC(C)C)C(=O)N[C@@H](CCCNC(=N)N)C(=O)N[C@@H](CCCNC(=N)N)C(=O)N[C@@H](Cc1c[nH]cn1)C(=O)N[C@@H](CCCNC(=N)N)C(=O)N[C@@H](Cc1ccc(O)cc1)C(=O)N[C@@H](CO)C(=O)N[C@H](C(=O)N[C@@H](Cc1ccccc1)C(=O)N[C@@H](CCCNC(=N)N)C(=O)O)[C@@H](C)CC)C(C)C)[C@@H](C)O)[C@@H](C)CC)[C@@H](C)CC the CC50 was 24.6 µM (THP-1, PMA-differentiated; cell viability, MTT).
For O[C@H]1[C@H]2c3cc4c(cc3CN3CCC(=C[C@@H]1O)[C@H]23)OCO4, the CC50 was > 31.6 µM (Huh-7.5.1; cell viability, ATPlite).
The CC50 of CSc1ccc(N(Cc2cc(Cl)cs2)C(=O)Cc2cncc3ccccc23)cc1 is reported as 84.1 µM (Calu-3; 48 h).
For CC(C)(C)c1ccc(-c2nn3c(Cn4nnc5ccccc54)nnc3s2)cc1, the CC50 was 34 µM (HEp-2; cytotoxicity).
For O=C(Nc1ccc(S(=O)(=O)N2CCC(Cl)CC2)cc1)c1ccc([N+](=O)[O-])o1, the CC50 was 11.4 µM (hepatocytes, human, immortalized, Fa2N-4; cytotoxicity; 24 h).
The CC50 of CC[C@H](C)[C@H](NC(=O)[C@H](CCCNC(=N)N)NC(=O)[C@H](CCCCN)NC(=O)[C@H](CCC(N)=O)NC(=O)[C@H](CCCNC(=N)N)NC(=O)[C@H](CCCNC(=N)N)NC(=O)[C@H](Cc1c[nH]cn1)NC(=O)[C@H](CC(C)C)NC(=O)[C@H](CC(C)C)NC(=O)[C@H](CCCNC(=N)N)NC(=O)[C@H](CC(C)C)NC(=O)CN)C(=O)N[C@H](C(=O)NCC(=O)NCC(=O)N[C@@H](CCCCN)C(=O)N[C@@H](CC(N)=O)C(=O)N[C@@H](CO)C(=O)N[C@@H](CC(C)C)C(=O)N[C@@H](CCCNC(=N)N)C(=O)NCC(=O)NCC(=O)N[C@@H](Cc1c[nH]c2ccccc12)C(=O)N1CCC[C@H]1C(=O)N[C@@H](Cc1c[nH]c2ccccc12)C(=O)N[C@@H](CCC(N)=O)C(=O)N[C@H](C(=O)N[C@@H](CO)C(=O)N[C@@H](CC(C)C)C(=O)N[C@@H](CCCNC(=N)N)C(=O)N[C@@H](CC(C)C)C(=O)N[C@@H](CCCCN)C(=O)O)C(C)C)[C@@H](C)CC is reported as 33.8 µM (THP-1, PMA-differentiated; cell viability, MTT).
CC(C)C[C@H](NC(=O)OCc1ccccc1)C(=O)N[C@@H](CC(C)C)C(=O)N[C@@H](CC1CCNC1=O)C(=O)C(=O)NC1CC1 (stereo partly drawn) gave a CC50 of > 250 µM (Huh-7; 5 (unit not given)).
Cc1ccc(C(C)Nc2nc(N3CCNCC3)nc3ccccc23)cc1 (stereo not drawn) has a cytotoxicity efficacy of 0% (Vero-E6; CellTiter-Glo ATP; concentration not given, 72 h, second round 5-point; relative to: DMSO 0%, hyamine -100%, more negative, more toxic).
With CC[C@H](C)[C@H](NC(=O)[C@H](CCC(N)=O)NC(=O)[C@H](CCCCN)NC(=O)[C@H](CCSC)NC(=O)[C@H](CO)NC(=O)[C@H](CCC(=O)O)NC(=O)[C@H](CCC(N)=O)NC(=O)[C@@H]1CCCN1C(=O)[C@H](CS)NC(=O)[C@@H](NC(=O)[C@H](CCCCN)NC(=O)[C@@H](NC(=O)CNC(=O)[C@@H](NC(=O)[C@@H]1CCCN1C(=O)[C@H](Cc1ccccc1)NC(=O)[C@H](Cc1ccccc1)NC(=O)[C@H](C)NC(=O)[C@H](CO)NC(=O)[C@H](CCCNC(=N)N)NC(=O)[C@H](CCCCN)NC(=O)[C@@H](NC(=O)[C@H](CCCNC(=N)N)NC(=O)[C@H](Cc1c[nH]cn1)NC(=O)[C@H](CCCCN)NC(=O)[C@H](C)NC(=O)[C@H](CC(C)C)NC(=O)[C@H](CC(=O)O)NC(=O)[C@H](Cc1ccccc1)NC(=O)[C@@H](NC(=O)[C@H](CCCNC(=N)N)NC(=O)[C@H](CCCNC(=N)N)NC(=O)[C@H](CCSC)NC(=O)[C@@H](NC(=O)[C@H](CO)NC(=O)[C@H](CCSC)NC(=O)[C@H](CCCCN)NC(=O)[C@H](Cc1ccc(O)cc1)NC(=O)[C@H](CCSC)NC(=O)[C@@H](N)CCCCN)[C@@H](C)O)[C@@H](C)CC)[C@@H](C)O)[C@@H](C)O)C(C)C)C(C)C)C(=O)N[C@@H](CC(C)C)C(=O)O the CC50 was 41.7 µM (THP-1, PMA-differentiated; cell viability, MTT).
COc1ccc(-c2nn3c(Cn4cnc5ccccc54)nnc3s2)cc1 has a CC50 of 35.5 µM (HEp-2; cytotoxicity).
For COc1ccc(-c2cn3c(n2)sc2cc(C(=O)NCCCN4CCCCCC4)ccc23)cc1, the maximum response was -25.3% (Vero-E6; CellTiter-Glo ATP; 72 h, second round 5-point; relative to: DMSO 0%, hyamine -100%, more negative, more toxic).
For CC[C@H](C)[C@H](N)C(=O)N1CCC[C@H]1C(=O)N[C@@H](CC(C)C)C(=O)N[C@@H](Cc1ccccc1)C(=O)N[C@@H](CCCNC(=N)N)C(=O)N[C@@H](CCCNC(=N)N)C(=O)N[C@@H](Cc1ccccc1)C(=O)NCC(=O)N[C@@H](CCCNC(=N)N)C(=O)N[C@@H](CCC(N)=O)C(=O)N[C@@H](CCCNC(=N)N)C(=O)N[C@@H](CCCCN)C(=O)N[C@H](C(=O)NCC(=O)NCC(=O)N[C@@H](CCCNC(=N)N)C(=O)NCC(=O)N[C@@H](CCCNC(=N)N)C(=O)N[C@H](C(=O)N[C@H](C(=O)N[C@@H](CO)C(=O)N1CCC[C@H]1C(=O)N[C@@H](Cc1ccc(O)cc1)C(=O)N[C@@H](CCCNC(=N)N)C(=O)N[C@H](C(=O)N1CCC[C@H]1C(=O)N[C@H](C(=O)N[C@@H](CC(C)C)C(=O)N[C@@H](CCCNC(=N)N)C(=O)N[C@@H](CCCNC(=N)N)C(=O)N[C@@H](Cc1c[nH]cn1)C(=O)N[C@@H](CCCNC(=N)N)C(=O)N[C@@H](Cc1ccc(O)cc1)C(=O)N[C@@H](CO)C(=O)N[C@H](C(=O)N[C@@H](Cc1ccccc1)C(=O)N[C@@H](CCCNC(=N)N)C(=O)O)[C@@H](C)CC)C(C)C)[C@@H](C)O)[C@@H](C)CC)[C@@H](C)CC)[C@@H](C)CC, the CC50 was 34.9 µM (THP-1, PMA-differentiated; cell viability, MTT).
For COc1cc(-c2nn3c(Cn4cnc5ccccc54)nnc3s2)cc(OC)c1OC, the CC50 was > 100 µM (HEp-2; cytotoxicity).
CCOc1ccc2cc(C(=O)Nc3nc4ccccc4[nH]3)[nH]c2c1 gave a CC50 of > 10 µM (293T or HeLa; CellTiter-Glo; 72 h).
Cc1nc2ccccc2n1Cc1nnc2sc(-c3ccc(F)c(Br)c3)nn12 has a CC50 of 9.7 µM (HEp-2; cytotoxicity).
With CC[C@H](CO)Nc1nc(NCc2ccc(-c3ccccn3)cc2)c2ncn(C(C)C)c2n1 the CC50 was 6.84 µM (NCI-60 cell lines; mean).
CC(C)(C)[C@H](NC(=O)C(F)(F)F)C(=O)N1C[C@H]2[C@@H]([C@H]1C(=O)N[C@H](C#N)C[C@@H]1CCNC1=O)C2(C)C has a CC50 of > 100 µM (CEM).

A few entries again:
Cc1nc2ccccc2n1Cc1nnc2sc(-c3ccc(F)c(Br)c3)nn12 has a CC50 of 9.7 µM (HEp-2; cytotoxicity).
